Measurements from different studies.
Lines come from different studies, so protocols differ. Values joined by “and” are separate records of one study, mostly repeats; a detail may differ. Numbers after ± are the reported error.
CASP7: Caspase-7 (CASP7, Homo sapiens, UniProt P55210)
CNR2: Cannabinoid receptor 2 (CNR2, Homo sapiens, UniProt P34972)
Gria2: Glutamate receptor 2 (Gria2, Rattus norvegicus, UniProt P19491)
T1: riboswitch RNA, fused to Pepper aptamer; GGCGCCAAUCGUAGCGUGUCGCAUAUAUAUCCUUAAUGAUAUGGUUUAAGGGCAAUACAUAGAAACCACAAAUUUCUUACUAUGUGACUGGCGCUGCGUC

| SMILES | target | test | system | setting | scale | measurement | result |
| --- | --- | --- | --- | --- | --- | --- | --- |
| O=C1c2sc(-c3ccc(N4CCC(CO)CC4)nc3F)nc2CCN1c1cccnc1 | Motilin receptor (MLNR, Homo sapiens, UniProt O43193) | ligand displacement, radioligand |  | 1 µM |  | inhibition | 8% |
| CC1CCN(c2ccc(-c3n[nH]c(=O)c4cccnc34)cc2)CC1 | human kinase panel | binding, KINOMEscan |  | 10000 nM, %Ctrl below 1 |  | number of kinases hit | 0 |
| C[C@](O)(c1cccc(F)c1)c1cn(CSc2ccccc2)nn1 | E3 ubiquitin-protein ligase Mdm2 (MDM2, Homo sapiens, UniProt Q00987) | thermal stability, DSF |  | 30 µM |  | ΔTm | 2.91 °C |
| Nc1nc2c(ncn2[C@@H]2O[C@H](COP(=O)(O)O)[C@@H](O)[C@H]2O)c(=O)[nH]1 | T1, riboswitch RNA, fused to Pepper aptamer | fluorescence |  | 5 µM |  | binding | binds weakly |
| CC(=O)N1[C@H](C(=O)N[C@@H](CC(C)C)C(=O)N[C@@H](C)C(=O)N[C@@H](CC(=O)O)C(=O)COC(=O)c2c(C)cccc2C)C[C@@H]2CCCC[C@@H]21 | CASP7 | enzyme activity, inhibitor |  |  |  | kinact/KI | 1800 M⁻¹ s⁻¹ |
| COc1ccc(C(OCCN2CCCC(C(=O)O)C2)(c2ccc(OC)cc2)c2ccc(OC)cc2)cc1 (stereo not shown) | Sodium- and chloride-dependent GABA transporter 1 (SLC6A1, Homo sapiens, UniProt P30531) | GABA transport, inhibitor, radioligand uptake | HEK293F transfected | 100 µM, 15 min pre, 45 min uptake, room temperature, with: [3H]-GABA 30 nM, GABA 25 µM | higher = more uptake | [3H]-GABA uptake | 792 a.u. and 386 a.u. and 1450 a.u. and 1200 a.u. and 356 a.u. and 590 a.u. and 756 a.u. and 449 a.u. |
| N#CN1CC[C@H](C(=O)Nc2nc3c(s2)CN(C(=O)Cn2cc(CNC(=O)CCCC[C@@H]4SC[C@@H]5NC(=O)N[C@@H]54)nn2)CC3)C1 | Ubiquitin carboxyl-terminal hydrolase 7 (USP7, Homo sapiens, UniProt Q93009) | probe binding, affinity probe, neutravidin pull-down LC-MS/MS | HEK293T, cell lysate | 5 µM, 1 h, single replicate, unit not given | higher = more pulled down | iBAQ abundance | 1.59e+07 and 4.04e+06 and 1.2e+07 |
| C[Si](C)(C)C[C@@H](CN)CC(=O)O | Vasoactive intestinal polypeptide receptor 1 (VIPR1, Homo sapiens, UniProt P32241) | ligand displacement, radioligand |  | 75 µM |  | inhibition | 10% |
| CC(=O)N[C@@H](CC(C)C)C(=O)N[C@@H](CCC(=O)O)C(=O)N[C@@H](Cc1c[nH]cn1)C(=O)N[C@@H](CC(=O)O)C(=O)COC(=O)c1c(C)cccc1C | CASP7 | enzyme activity, inhibitor |  |  |  | kinact/KI | 15500 M⁻¹ s⁻¹ |
| CCOC(=O)C(CC)(CCCSCCOCCOCCOCCOCCN)NC(=O)c1ccc(C2CC2)c(Cc2ccc(F)cc2)n1 (stereo not shown) | CNR2 | radioligand binding |  |  | baseline: CB1 over CB2 (human) | Ki ratio | 63 |
| Cc1cc(NC(=O)[C@H](O)c2cc(F)cc(F)c2)ccc1-c1cnc(N)c(C(=O)NC(C)C)c1 | Serine/threonine-protein kinase RIO1 (RIOK1, Homo sapiens, UniProt Q9BRS2) | binding, competition with immobilised ligand |  | 10 µM |  | remaining binding | 100% |
| Clc1ccc(NN=C(c2ccccc2)c2ccccn2)nc1 | Lysine-specific demethylase 4A (KDM4A, Homo sapiens, UniProt O75164) | demethylase activity, inhibitor, 1H NMR, measured: H3K9me3 peptide |  |  |  | remaining signal at infinite time | 78% |
| CCCC[C@H](NC(=O)[C@H](CC(=O)O)NC(C)=O)C(=O)N[C@H](C(=O)N[C@@H](CC(=O)O)C(=O)COC(=O)c1c(C)cccc1C)[C@@H](C)OCc1ccccc1 | CASP7 | enzyme activity, inhibitor |  |  |  | kinact/KI | 938000 M⁻¹ s⁻¹ |
| O=C(Nc1ccc(CNc2ncccn2)cc1)c1cc(-c2ccccc2)n(-c2ccccc2)n1 | Genome polyprotein, NS2B-NS3 protease (dengue virus type 2, UniProt P29990) | reporter gene | HeLa | 12.5 µM |  | inhibition | 30 ± 12% |
| CCCCCC(O)/C=C/C=O (stereo not shown) | Condensin complex subunit 1 (Homo sapiens, UniProt Q15021) | competitive isoTOP-ABPP, measured: NCAPD2 cysteine peptide | Ramos soluble proteome | 100 µM, with: iodoacetamide probe | baseline: DMSO over compound-treated, higher = stronger cysteine blockade | isoTOP-ABPP competition ratio | 1.6 |
| COc1cc(-c2cn(C)c(=O)c3cnccc23)cc(OC)c1CN(C)C | Histone acetyltransferase KAT2B (KAT2B, Homo sapiens, UniProt Q92831) |  |  |  |  | ΔTm | 1.1 °C |
| CCOC(=O)C(CC)(CCCSCCOCCOCCN=[N+]=[N-])NC(=O)c1ccc(C2CC2)c(Cc2ccc(F)cc2)n1 (stereo not shown) | CNR2 | radioligand binding |  |  | baseline: CB1 over CB2 (human) | Ki ratio | 8 |
| COC(=O)Cc1cc2c(cc1C(=O)c1ccccc1Br)OCO2 | Gria2 | glutamate-evoked current, whole-cell patch clamp | HEK-293T | concentration not given, weighted tau, 500 ms pulse, with: glutamate |  | desensitization time constant | 2.4 ± 0.1 ms |
| Nc1ncnc2c1ncn2C1OC(CN(CCCC2CNCc3c2ccc(Cl)c3Cl)CCC(N)C(=O)O)C(O)C1O (mixture of isomers) | Phenylethanolamine N-methyltransferase (PNMT, Homo sapiens, UniProt P11086) | ITC |  | second site, SAH bound |  | −TΔS-2 | -16.2 kcal/mol |
| COC(=O)Cc1cc2c(cc1C(=O)c1cccc(Br)c1)OCO2 | Gria2 | glutamate-evoked current, whole-cell patch clamp | HEK-293T | concentration not given, glutamate alone after washout, with: glutamate |  | current amplitude after recovery | 1310 ± 67 pA |
| C=CC(=O)N1CCCC(n2c(=O)c3ncccc3n(Cc3ccc(Oc4ccccc4)cc3)c2=O)C1 (stereo not shown) | T-complex protein 1 subunit epsilon (CCT5, Homo sapiens, UniProt P48643) | thermal proteome profiling | cell proteome | unit not given | baseline: vehicle | melting temperature shift | -3.29 |
| N=C(N)NCCS(=O)(=O)O | Sodium- and chloride-dependent taurine transporter (SLC6A6, Homo sapiens, UniProt P31641, G62A) | binding, microscale thermophoresis |  | 488 nM, room temperature, with: 50 nM labelled protein | higher = more binding | normalised MST signal | -0.0108 |
| CCCCCC=CC=C1C(=O)C=CC1CC=CCCCC(=O)O (stereo not shown) | T-complex protein 1 subunit theta (CCT8, Homo sapiens, UniProt P50990) | competitive isoTOP-ABPP | Ramos soluble proteome | 100 µM, 60 min, with: iodoacetamide probe | baseline: DMSO over compound-treated, higher = stronger cysteine blockade | isoTOP-ABPP competition ratio | 8.6 |
| CC(C)Oc1cc(Cl)ccc1CNc1cc(-c2ccccc2)nc2ncnn12 | G-protein coupled receptor 3 (GPR3, Homo sapiens, UniProt P46089, Q215A) | cAMP level, cAMP GloSensor |  | 10 pM | higher = more cAMP | cAMP luminescence | 35100 a.u. and 44500 a.u. and 42000 a.u. and 40900 a.u. and 38900 a.u. |
| Cc1ccc(NC(=O)NC(C)(C)c2cccc(NC3=CC(=O)N(C4CCC(=O)NC4=O)C3=O)c2)cc1Cl (stereo not shown) | Cereblon/Ikaros (Homo sapiens, UniProt Q13422+Q96SW2) | degrader, quantitative proteomics, measured: protein abundance | Jurkat | 1 µM, 4 h | baseline: DMSO | log2 fold change | -1.74 |
| CC(=O)N[C@@H](CC(C)C)C(=O)N[C@H](C(=O)N[C@@H](C)C(=O)N[C@@H](CC(=O)O)C(=O)COC(=O)c1c(C)cccc1C)C(C)(C)C | CASP7 | enzyme activity, inhibitor |  |  |  | kinact/KI | 3600 M⁻¹ s⁻¹ |
| Cc1ccc(C)c(-c2cc(NC(=O)c3cncc(Br)c3)[nH]n2)c1 | human kinase panel | binding, KINOMEscan |  | 10000 nM, %Ctrl below 35 |  | number of kinases hit | 1 |
| CN(C)c1ccc2c(c1)C(=O)N(Cc1ccc(S(N)(=O)=O)cc1)C2=O | Carbonic anhydrase 2 (CA2, Bos taurus, UniProt P00921) | binding |  | 2 µM, pH 7.2 | baseline: without protein | fluorescence turn-on | 15.1 fold |

Excerpt of the above:
| SMILES | target | test | system | setting | scale | measurement | result |
| --- | --- | --- | --- | --- | --- | --- | --- |
| Cc1cc(NC(=O)[C@H](O)c2cc(F)cc(F)c2)ccc1-c1cnc(N)c(C(=O)NC(C)C)c1 | Serine/threonine-protein kinase RIO1 (RIOK1, Homo sapiens, UniProt Q9BRS2) | binding, competition with immobilised ligand |  | 10 µM |  | remaining binding | 100% |
| Clc1ccc(NN=C(c2ccccc2)c2ccccn2)nc1 | Lysine-specific demethylase 4A (KDM4A, Homo sapiens, UniProt O75164) | demethylase activity, inhibitor, 1H NMR, measured: H3K9me3 peptide |  |  |  | remaining signal at infinite time | 78% |
| CCCC[C@H](NC(=O)[C@H](CC(=O)O)NC(C)=O)C(=O)N[C@H](C(=O)N[C@@H](CC(=O)O)C(=O)COC(=O)c1c(C)cccc1C)[C@@H](C)OCc1ccccc1 | CASP7 | enzyme activity, inhibitor |  |  |  | kinact/KI | 938000 M⁻¹ s⁻¹ |
| O=C(Nc1ccc(CNc2ncccn2)cc1)c1cc(-c2ccccc2)n(-c2ccccc2)n1 | Genome polyprotein, NS2B-NS3 protease (dengue virus type 2, UniProt P29990) | reporter gene | HeLa | 12.5 µM |  | inhibition | 30 ± 12% |
